Measured values of several laboratories.
A part holds a random share of what one study measured.

Study 1
Target: Prothrombin, mature alpha-thrombin (F2, Homo sapiens, UniProt P00734)
Technique: aptamer microarray, sandwich
Form: DNA with 2'F-ANA
Sample: in vitro
Concentration: 200 nM
Notes: whole 15-mer aptamer, many near background
With: Cy3 exosite-II aptamer, 400 nM
Reading: higher = stronger binding
Oligonucleotide: GGTTGGTGTGGTTGG
Modification | mean fluorescence intensity
2'F-ANA at 3 4 7 9 10 11 13 | 250 a.u.
2'F-ANA at 1 3 4 7 8 12 14 | 114 a.u.
2'F-ANA at 1 2 3 4 5 6 7 9 10 13 14 | 50.4 a.u.
2'F-ANA at 10 11 12 14 15 | 98.6 a.u.
2'F-ANA at 2 3 4 5 6 8 11 13 15 | 75.6 a.u.
2'F-ANA at 2 3 4 7 8 9 10 11 12 13 15 | 224 a.u.
2'F-ANA at 2 3 4 5 9 10 12 13 14 | 321 a.u.
2'F-ANA at 3 4 5 8 9 11 12 13 14 | 56.5 a.u.
2'F-ANA at 3 6 7 9 14 | 442 a.u.
2'F-ANA at 3 5 6 8 11 12 13 | 173 a.u.
2'F-ANA at 1 2 5 6 9 11 13 15 | 67.3 a.u.
2'F-ANA at 1 3 4 5 6 7 10 11 13 | 61.8 a.u.
2'F-ANA at 3 5 8 9 13 14 | 55.9 a.u.
2'F-ANA at 1 2 3 5 6 7 8 9 12 14 15 | 49.9 a.u.
2'F-ANA at 3 5 6 8 9 11 14 15 | 54.9 a.u.
2'F-ANA at 1 2 3 7 8 9 10 13 | 64.3 a.u.
2'F-ANA at 1 2 3 6 7 9 10 11 12 14 | 68 a.u.
2'F-ANA at 2 3 4 7 10 14 15 | 207 a.u.
2'F-ANA at 4 5 6 10 12 13 15 | 46.5 a.u.
2'F-ANA at 2 5 7 9 10 11 14 15 | 47.1 a.u.
2'F-ANA at 2 3 7 11 12 14 15 | 486 a.u.
2'F-ANA at 2 3 4 12 13 | 751 a.u.
2'F-ANA at 3 4 5 7 11 12 15 | 141 a.u.

Study 2
Target: RNA binding protein fox-1 homolog 2, RRM domain, GST-SBP tag (RBFOX2, Homo sapiens, UniProt O43251-10, residues 100-194)
Technique: RNA Bind-n-Seq
Form: RNA
Sample: in vitro
Concentration: 365 nM
Notes: natural RNA segment, single round, ends assumed
Baseline: no-protein control
Reading: higher = stronger binding
All sequences stand within: GGGAGUUCUACAGUCCGACGAUC … UGGAAUUCUCGGGUGCCAA
Construct (chain): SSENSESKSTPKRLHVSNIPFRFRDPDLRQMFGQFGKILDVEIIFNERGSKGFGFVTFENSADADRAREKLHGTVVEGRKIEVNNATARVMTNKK
Oligonucleotide | RBNS enrichment (R)
GUGUGUGUGUGUGUUCACACAUGUGUGUCUUCACAUGUAUAGAAGUAGCCCUGUAAGGAGGGGCAGAGUGGCUGGUGCUACAGACGUCACAUGGGCUCUUUGGGGGUCUG | 0.482
AAAAGGGUGAAGAGCUCAAAGAACCCCGACUCCCCCCUCCCCUCCCACCUCAUUGUGUACCAUGAGGGGUCCUUGGGAAAUGUCUUACCUCUUGUGUUGAAUGGAGACCU | 0.717
CUGUGUGCCCAAAAUUCUGUUUCGCAGCAAAAGUGAAGACCUGUAUGUAAAGAAAGUAUAACAAUUAUUUCUUUGUAUUUUAGGGGCUUUAACCGGAACAUCGUCUAGCU | 0.261
CACUCUUCCUCACGCUGUUGUUACUCAUGCACCAUUCAGACUUGUUAGAGUAGAUGUGGGUUUAGGACUGCCAGGUUUGCCCAGUAUAGUAGUUUUUAUCACUAAAAAGU | 1.07
CUGGGAUUACAGGCGUGAGCCACCGUGCCUGCCCCAGAAUGGUUUUUAAAGCCACAGUUGAGAGGCCACCCAUUGCCCGGCGCCUGGACAGUGAUCAUCUUGUUCAUCUU | 0.365
GACCAGCCUGACCAAACAUGGCGAAACCCCAUCUGUACUGAAAAUACAAAAAUUAGGCAUGGUGGUGCAUGCCUGUAGUUCCAGCUACUUGGGAGGCUGAGACAGGCGAA | 0.574
AUACCAGUAUUUCCAUAACAGAGAAUGGUGAGCCCUAUGAUGCUGAAGGGAUUCCAUCUCUCCAUCUCCCAGUUUAUCAUUGUGGUCCAAUUACAUAGUCAGCUACAUAA | 0.502
GAAUUUUACGAUUCCCAAACCAUGCAGGGGCUGAGCCUUCCUUAUGAUGACUUUGUUCUCCCUCCCACUGGGGGAAUCCUCCCUAUGCCUUAAAACUGCCGAGCCCCACU | 0.37

Study 3
Target: Histone acetyltransferase KAT6A, winged helix 2, GST fusion (KAT6A, Homo sapiens, UniProt Q92794, residues 85-181)
Technique: protein binding microarray
Form: double-stranded DNA, one strand shown
Sample: in vitro
Concentration: not given
Notes: 8-mer, flanks averaged, mean of 2 arrays, mostly near background
Baseline: not given
Reading: higher = stronger binding
Construct (chain): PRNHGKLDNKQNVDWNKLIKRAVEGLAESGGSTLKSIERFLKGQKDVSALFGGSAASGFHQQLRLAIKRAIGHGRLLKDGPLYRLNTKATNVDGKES
Oligonucleotide | E-score
ACGACCCG | 0.114
TGCACGAA | 0.0536
CGTGGCGC | -0.037
GGCCAACC | 0.0831
CCACCAGA | -0.0604
CAGTTATG | -0.056
ATATGACG | 0.0247
GGTATCGA | 0.0809
ATCCCGAA | 0.16
GCCTCAGC | 0.0874
CCAAAGAC | 0.0477
GCAAATGC | 0.09
TAAATGTA | -0.158
ACTAACCA | 0.125
GATACTCC | 0.101
CGGCGATC | 0.292
CGACCCTA | 0.159
ACCTATTG | -0.221
CCGAGGCC | -0.13
AGACTGTA | -0.141
TTAGGAAA | 0.058
AATTGCTA | -0.086
CGGACCCG | 0.227
AGTCTGTG | -0.0886
CCGTGTTC | 0.0689

Study 4
Target: RING finger protein unkempt homolog, zinc fingers 1-6, GST-SBP tag (UNK, Homo sapiens, UniProt Q9C0B0, residues 30-357)
Technique: RNA Bind-n-Seq
Form: RNA
Sample: in vitro
Concentration: not given
Notes: RNA with constant flanks, human and mouse sites, ends assumed
Baseline: input RNA pool
Reading: higher = stronger binding
All sequences stand within: GGGAGUUCUACAGUCCGACGAUC … CAACAGAGGAUUGAGCAUCA
Construct (chain): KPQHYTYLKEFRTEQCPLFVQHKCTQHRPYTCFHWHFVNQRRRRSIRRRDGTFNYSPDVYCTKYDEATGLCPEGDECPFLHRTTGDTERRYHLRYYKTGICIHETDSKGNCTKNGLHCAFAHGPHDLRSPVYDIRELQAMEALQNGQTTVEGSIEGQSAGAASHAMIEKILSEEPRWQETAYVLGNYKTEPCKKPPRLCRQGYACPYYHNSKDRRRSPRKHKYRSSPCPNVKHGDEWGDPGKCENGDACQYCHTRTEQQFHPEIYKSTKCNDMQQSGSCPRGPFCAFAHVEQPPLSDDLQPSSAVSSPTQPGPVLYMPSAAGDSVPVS
Oligonucleotide | bound/input enrichment [ratio]
GUUGUUUUUGUUUUGAGACAGGGCCUCACUGUGCGGCCCUGGCUGGCCUGGAACUUGCUAUAUAGACCAGGCUAACCUGGAACUCAGCGAACUGUCUGCCCAGCCUUCUUUGGUUUUAUU | 0.0895
GCAAGAAUUGAUGCUGUGAAUGCUGAGACAAUUCGAGAAGUAUGUACCAAAUACAUUUAUAAUAGGAGUCCAGCUAUUGCUGCUGUUGGUCCCAUUAAGCAACUACCAGAUUUUAAACAG | 0.407
GGCAACAAAGAAGAUUACGACCUUUCAAAGAUGAGGGACUUUAUCAACCAACAAGCUGACGCUUAUGUGGAGAAGGGCAUCCUCGACAAGGAAGAAGCCAACGCCAUCAAACGCAUCUAC | 0.0817
GACCCCAUGGCAUCCCCCAGAACCGUAACUAUUGUGGCCCUCUCAGUGGCCCUGGGACUCUUCUUUGUUUUCAUGGGGACUAUCAAGCUGACCCCCAGGCUCAGCAAGGAUGCCUACAGU | 0.124
GACCCACAGUGGUCUGAGGAACAGCUGAUUGCUGCAAAAUUUUGCUUUGCUGGACUUCUUAUAGGCCAGACUGAAGUGGAUAUCAUGAGUCAUGCUACACAGGCUAUAUUUGAAAUACUG | 0.18
ACUAACAGGCCAUUUAUUUCCCAGAAAAUCCACUUUCCUGACUUUUCUACCAGAGACAUACAUAGGAAUUAUGUUGAUUGUGUGCGAUGGUUAGGCGAUUUGAUACUUUCCAAGUCUUGU | 0.289
GUUAGGAUGAUUCUGAAGAUUGAUGACAUCCGUAAGCCUGGAGAAUCUGAAGAAUAAACUGUACCAUUUACCACUGUGACUAAAUAAAGGGUGUGUCUGUUGUGCUGCGUCUGCAGUUAC | 0.56
GUUUCAUUCCAUUCCCAUUCAGAUCAUCGUUUUCUGGGCACCGUAGAAAAAGAAGCCACUUUUUCCAAUCCUAAAACUACAAGCCCAAAUAAAGGCAAAGACAAGGAGGCAGAAGAUGGC | 0.388

Some of these lines once more (study 3):
Oligonucleotide | E-score
ACTAACCA | 0.125
GATACTCC | 0.101
CGGCGATC | 0.292
CGACCCTA | 0.159
ACCTATTG | -0.221
